Assay results of several laboratories.
Lines come from different studies, so protocols differ. ± gives the spread as reported.
Target: Carbonic anhydrase 9 (CA9, Homo sapiens, UniProt Q16790)

SMILES	assay	setting	endpoint	value
Cc1cc(C(=O)CN2CCN(C(=O)c3cccc(F)c3)CC2)c(C)n1-c1ccc(S(N)(=O)=O)cc1	enzyme activity, inhibitor	–	IC50	24 nM
CCCCCCCCCCCC(=O)NC1CCOC1=O (stereo not drawn)	enzyme activity, inhibitor, stopped-flow	–	Ki	10100 nM
CC[C@H](C)[C@H](N)C(=O)NS(=O)(=O)CC(=O)N[C@]1(C(=O)O)[C@@H]2CN(C)C=C(C(N)=O)[C@@H]2C[C@@H]1O	enzyme activity, inhibitor, absorbance	pH 7.5	IC50	73 nM
O=C1CCCCO1	enzyme activity, inhibitor, stopped-flow	–	Ki	5300 nM
CC[C@H](C)[C@H](N)C(=O)NS(=O)(=O)CC(=O)N[C@@]1(C(=O)O)[C@@H](OC(=O)[C@@H](N)[C@@H](C)c2ccccc2)C[C@H]2C(C(N)=O)=CN(C)C[C@H]21	enzyme activity, inhibitor, absorbance	pH 7.5	IC50	99 nM
COC(=O)CCCNC(=O)c1cc(S(N)(=O)=O)c(Cl)cc1NC1CCCCC1	–	pH 7	Kd	18 nM
NS(=O)(=O)c1ccc(NC(=O)c2ccc(Cl)c(S(N)(=O)=O)c2)cc1	enzyme activity, inhibitor	–	IC50	20.9 nM
CCCCCCC(=O)N[C@H]1CCOC1=O	enzyme activity, inhibitor, stopped-flow	–	Ki	20700 nM
Cc1cc(=O)oc2cc(OCCCCCCSC#N)ccc12	enzyme activity, inhibitor, stopped-flow	–	Ki	17.9 nM
NS(=O)(=O)c1ccc(NC(=O)Cc2csc(NC(=O)Nc3ccc(Cl)cc3)n2)cc1	enzyme activity, inhibitor	–	IC50	17 nM
N#C[Se]CCCCCCOc1ccc2c(-c3ccccc3)cc(=O)oc2c1	enzyme activity, inhibitor, stopped-flow	–	Ki	133 nM
Cc1nn(-c2ccc(S(N)(=O)=O)cc2)c(C)c1CCC(=O)Nc1cccc(-c2cn(C)nn2)c1	inhibitor	–	IC50	27 ± 4 nM

Excerpt of the above:
SMILES	assay	setting	endpoint	value
COC(=O)CCCNC(=O)c1cc(S(N)(=O)=O)c(Cl)cc1NC1CCCCC1	–	pH 7	Kd	18 nM
NS(=O)(=O)c1ccc(NC(=O)c2ccc(Cl)c(S(N)(=O)=O)c2)cc1	enzyme activity, inhibitor	–	IC50	20.9 nM
